Measured values of several laboratories.
Values joined by “and” are separate records of one study, mostly repeats; a detail may differ. ± marks the error that the study gave.

COc1cc2ncnc(Cc3cccc(-c4ccncc4)c3)c2cc1OC — inhibition (A549; mitochondrial oxygen consumption, Seahorse XF96; 10 µM): 8%
Cn1cc(Nc2nccc(-c3ccc4c(c3)CN(C3COC3)CC[C@H]4NC(=O)c3cn(C(C)(C)C)nn3)n2)cn1 — pathway activation z-score (mouse splenic B cells; item: Endothelin-1 signalling; 30 mg/kg, IgD-activated in vivo; reference: vehicle, direction not given): 2.86
Cc1cc(Nc2ncc(Cl)c(Nc3ccccc3S(=O)(=O)C(C)C)n2)c(OC(C)C)cc1C1CCNCC1 — Emax (Ba/F3 EML4-ALK variant 1 E1210K; cell viability): 99.9%
O=C(NOC[C@H](O)CO)c1ccc(F)c(F)c1Nc1ccc(I)cc1F — viability (A549; 0.1562 µM, 72 h): 59.3%
Cc1cn(-c2cc(NC(=O)c3ccc(C)c(Nc4nccc(-c5cccnc5)n4)c3)cc(C(F)(F)F)c2)cn1 — beat amplitude (iCell Cardiomyocytes (hiPSC-derived); xCELLigence Cardio impedance; concentration not given, 2 h; reference: control): 107%
CCCCN1CCN(c2ccc3[nH]c(-c4ccc5[nH]c(-c6cc(OC)c(OC)c(OC)c6)nc5c4)nc3c2)CC1 — growth percent (NCI/ADR-RES; cell growth, NCI-60 SRB; 10 µM, 48 h): 102%
C=C(c1ccc(O)c(Oc2cc3c(cc2OC)CCN(C)[C@@H]3Cc2ccc(OC)cc2)c1)[C@H]1c2cc(O)c(OC)cc2CCN1C — inhibition (3T3-L1; adipocyte lipid accumulation, Nile Red staining; 1 µM): 13.4 ± 0.5%
O=c1[nH]nc(OCCCc2ccc(Cl)cc2)c(NCc2cccnc2)c1Br — log2 fold change (HEK293T; RNA-seq, item: HSPH1 mRNA; 10 µM, 6 h; reference: vehicle): -0.181
OC(CCN1CCCCC1)(c1ccccc1)C1CC2C=CC1C2 (stereo not shown) — EEG Beta3-power Fz-Cz (resting-state EEG; healthy elderly humans; oral, 2 mg, eyes open, LS mean): 1.8 µV²
C#Cc1cccc(Nc2ncnc3cc(OCCOC)c(OCCOC)cc23)c1 — ATP level (iCell Cardiomyocytes (hiPSC-derived); CellTiter-Glo; concentration not given, 24 h; reference: control): 93.1%
C=CC(=O)N1CCC([C@@H]2CCNc3c(C(N)=O)c(-c4ccc(Oc5ccccc5)cc4)nn32)CC1 — IC50 (Ramos; calcium flux, FLIPR; 1 h preincubation): 0.00916 µM
C=CC(=O)N1CCC(COCC(=O)N2CCN(c3nc(-c4cnc(N)nc4C(F)F)nc(N4CCOC[C@@H]4C)n3)CC2)CC1 — GR50 (SK-OV-3; resazurin growth rate inhibition; 72 h): 75.9 nM
C#Cc1cccc(Nc2ncnc3cc(OCCOC)c(OCCO)cc23)c1 — inhibition (NLRP3 inflammasome (mouse); mouse BMDM; 10 µM): 53.9%
CCn1cc(-c2cc(Cn3ccoc3=N)cc3c2CCN([C@@H](C)c2cc(OC)ccn2)C3=O)c(C(F)(F)F)n1 — EC50 (MKN-74; cell growth, inhibitor; 120 h): > 30 µM
Cc1cccc(C)c1NC(=S)N/N=C/c1ccc(N2CCC(O)CC2)cc1 — selectivity ratio (BEAS-2B and A549; MTT; reference: IC50 BEAS-2B over IC50 A549): 8.1
O=C(O)c1ccc(-c2c[nH]c3ncc(-c4ccccc4)cc23)cc1C1CCCC1 — relative cell number (SK-OV-3; ATP; 0.01 µM, 4 days, 3D gellan gum culture; reference: untreated): 101%
C=CC(=O)N1CCC[C@@H](c2ccc(C(N)=O)c3[nH]ccc23)C1 — inhibition (TMD8 RAC2 knockout; calcium flux, FLIPR; concentration not given, 1 h preincubation): 74.1%
COc1cnc2cccc(N3CCc4c(cc(Cn5ccnc5C)cc4-c4cn(C)nc4C(F)(F)F)C3=O)c2c1 — EC50 (DB; cell growth; 120 h): 5.32 µM
Cn1cc(-c2ccc(F)c(C(F)(F)F)c2)nc1C1CCN(c2ncnc3[nH]ncc23)CC1 — relative cell number (SK-OV-3; ATP; 0.1 µM, 4 days, 3D U-bottom low-attachment; reference: untreated): 114%
CC1(COc2ccc(CC3SC(=O)NC3=O)cc2)CCCCC1 (stereo not shown) — maximal ROS response (HepaRG; ROS-Glo): -82.6 ± 15.6%
Cc1ccc2nc(NCCN)c3ncc(C)n3c2c1 — cell index (iCell Cardiomyocytes (hiPSC-derived); cellular impedance; concentration not given, 24 h; reference: control): 96.8%
NC(N)=NN=C(C=Cc1ccc([N+](=O)[O-])o1)C=Cc1ccc([N+](=O)[O-])o1 — fibulin-3 level (ARPE-19 HiBiT fibulin-3; HiBiT luminescence; 5 µM): -69.6%
CN1CC[C@H](c2c(O)cc(O)c3c(=O)cc(-c4ccccc4Cl)oc23)[C@H](O)C1 — cell index (iCell Cardiomyocytes (hiPSC-derived); cellular impedance; concentration not given, 24 h; reference: control): 48.7%
CCCN1CCN(c2ccc3[nH]c(-c4ccc5[nH]c(-c6ccc(OCC)c(OCC)c6)nc5c4)nc3c2)CC1 — growth percent (BT-549; SRB; 10 µM, 48 h): -64%
Clc1ccc(Nc2nnc(Cc3ccncc3)c3ccccc23)cc1 — cell index (iCell Cardiomyocytes (hiPSC-derived); cellular impedance; concentration not given, 24 h; reference: control): 100%
COC(=O)c1cc(C(C)=NNc2nc(-c3ccc4c(c3)OCCCO4)cs2)ccc1O — apoptotic cells (T47D; annexin V/PI flow cytometry; 10 µM, 72 h): 11 ± 1.37%
CCn1cc(-c2cc(Cn3ccnc3)cc3c2CCN([C@H](c2cc(OC)ccn2)C2CC2)C3=O)c(C(F)(F)F)n1 — EC50 (SNU-449; cell growth, inhibitor; 120 h): 29 µM
Cc1[nH]c(/C=C2\C(=O)Nc3ccc(S(=O)(=O)Cc4c(Cl)cccc4Cl)cc32)c(C)c1C(=O)N1CCC[C@@H]1CN1CCCC1 — ATP level (iCell Cardiomyocytes (hiPSC-derived); CellTiter-Glo; concentration not given, 24 h; reference: control): 95.6%
CC(C)CC(O)C(=O)O (stereo not shown) — z-scored log2 fold change (binding, equilibrium dialysis LC-MS; 5 µM, thermostabilized A2AR-BRIL construct; reference: no-protein control, direction not given): -0.575
C[C@H]1CN(C2COC2)CCN1c1ccc(Nc2cc(-c3ccnc(N4CCn5c(cc6c5CC(C)(C)C6)C4=O)c3CO)cn(C)c2=O)nc1 — IC50 (TMD8 RAC2 knockout; calcium flux, FLIPR; 4 h preincubation): 0.0025 µM
Cc1cc(Nc2ncc(Cl)c(Nc3ccccc3S(=O)(=O)C(C)C)n2)c(OC(C)C)cc1C1CCNCC1 — log2 fold change (CLB-BAR; phosphoproteomics LC-MS/MS, item: KIF26B phosphorylation; 200 nM, 60 min; reference: untreated): -2.63
COc1ccc(NC(=S)N/N=C/c2cccc3cc4ccccc4nc23)cc1 — mitochondrial membrane potential (HeLa; TMRE flow cytometry; IC25, 48 h, unit not given; reference: DMSO control): 1.69 ± 0.49
Nc1cccc2c1CN(C1CCC(=O)NC1=O)C2=O (stereo not shown) — viability (bone marrow CD138+ myeloma cells; XTT; 2 µM, phenol red-free RPMI): 8%
Cn1cc(-c2ccc(-c3cncc(Cl)c3N3CCC4(CCNC4=O)CC3)cc2)cn1 — log2 fold change (COLO 205; gene expression, microarray, item: ULBP1 mRNA; concentration not given, 2 h; reference: untreated cells): 4.92
COc1ccc(-n2nc(C(C)=O)s/c2=N\N=C(/C)c2ccc(NC(=O)c3ccc(C)cc3)cc2)cc1 — toxicity (MCF7; 0.156 µM): 43.9%
COc1ccc2c(c1)CN(C(=O)CCN1CCC(Cc3ccccc3)CC1)CC[S@@+]2[O-] — APD90 prolongation (rabbit ventricular cardiomyocytes; optical action potential; 0.3 µM, 30 min, pacing 2 Hz): ~10%
CC(C)NCC(O)c1ccc(O)c(O)c1 (stereo not shown) — sarcomere length (mouse ventricular cardiomyocytes; dose not given, 0.411 s): 1.78 µm
Cc1nn(-c2nc3c(F)cc(F)cc3s2)c(O)c1C(c1ccc(C(F)(F)F)cc1)c1c(C)nn(-c2nc3c(F)cc(F)cc3s2)c1O — phospho-TBK1 to TBK1 ratio (THP1-Dual; western blot; 20 µM, separate blot, together with: HT-DNA; reference: DMSO): 0.575 and 0.491 and 0.562
Clc1ccc(C2(c3ccc(-c4cn[nH]c4)cc3)CCNCC2)cc1 — relative cell number (SK-OV-3; ATP; 1 µM, 4 days, 3D U-bottom low-attachment; reference: untreated): 134%
O=C1CCC(N2Cc3c(C#CCCCNC(=O)C4CCN(C(=O)[C@@H]5NC6(CCCCC6)[C@@]6(C(=O)Nc7cc(Cl)ccc76)C5c5cccc(Cl)c5F)CC4)cccc3C2=O)C(=O)N1 (stereo in doubt) — growth inhibition (RS4;11 (p53 wild type); WST-8; concentration not given, 4 days): inactive
CS(=O)(=O)CCNCc1ccc(-c2ccc3ncnc(Nc4ccc(OCc5cccc(F)c5)c(Cl)c4)c3c2)o1 — beat rate (iCell Cardiomyocytes (hiPSC-derived); xCELLigence Cardio impedance; concentration not given, 2 h; reference: control): 98.5%
CC1CNC(=O)NC1=O (stereo not shown) — z-scored log2 fold change (binding, equilibrium dialysis LC-MS; 5 µM, thermostabilized A2AR-BRIL construct; reference: no-protein control, direction not given): -0.334
CC/C(=N\NC(=O)NCc1cccc(O)c1)c1ccc(O)c(C)c1O — log ratio (SK-OV-3; gene expression, microarray, item: MMP10; 10 µM, 24 h; reference: DMSO): -4.47
c1ccc(-c2cccc(Cc3nccc4ccccc34)c2)cc1 — inhibition (A549; mitochondrial oxygen consumption, Seahorse XF96; 10 µM): 0%
CC(C)Nc1ccnc(Nc2ccccc2-c2ccccc2)n1 — EC50 (MOLM-13 (FLT3-ITD); cell viability, MTT; 72 h): > 10 µM
C[C@H]1Oc2cc(cnc2N)-c2c(nn(C)c2C#N)CN(C)C(=O)c2ccc(F)cc21 — Emax (Ba/F3 EML4-ALK variant 1 E1210K; cell viability): 100%
O=C(/C=C/C=C/C=C/C1CCCCC1)NC1=C[C@@](O)(/C=C/C=C/C=C/C(=O)NC2=C(O)CCC2=O)[C@@H]2O[C@@H]2C1=O — GI50 (CAKI-2; cell growth, CellTiter-Glo; 78 h): 18.4 µM
c1cnc2c(c1)ccc1cccnc12 — IL-4 mRNA level (differentiated THP-1; 25 µg/mL; reference: albendazole and praziquantel): decreased
COc1ccc2c(N(C)c3ccc(/C(C)=N/OCCN)cc3)c3c(Cl)coc3nc2c1 — G2/M cells increase (LNCaP C-81; flow cytometry; 1 µM, 72 h): 3 fold
CCCCN1C[C@H](O)[C@@H](O)[C@@H](O)[C@H]1CO — IC50 (sample BC patient fibroblasts; Gb3 level lowering, LC-MS/MS, item: Gb3 d18:1/24:1; 216 h): 23.4 µM
CC/C(=N\NC(=O)C(C)Nc1ccccc1)c1ccc(O)c(C)c1O (stereo not shown) — protein level (SK-OV-3; Western blot, item: YAP; 10 µM, 6 h, 3D gellan gum culture, unit not given; reference: β-actin): 1.18 ± 0.55
Nc1cccc2c1C(=O)N(C1CCC(=O)NC1=O)C2=O (stereo not shown) — viability (MM1.S; XTT; 2 µM; reference: untreated): 22%
Cc1ccc(NC(=O)c2ccc(CN3CCN(C)CC3)cc2)cc1Nc1nccc(-c2cccnc2)n1 — beat rate (iCell Cardiomyocytes (hiPSC-derived); xCELLigence Cardio impedance; concentration not given, 2 h; reference: control): 101%
CCCCCCNC(=O)n1cc(F)c(=O)[nH]c1=O — ceramide level (SW-403; LC-MS, item: Cer(d18:1/16:0); 0.1 µM): 20.4 ± 1 pmol/mg protein
Cc1cnc2ccc3c(c2n1)N1CCC(O)N=C1N3C (stereo not shown) — relative colony forming efficiency (BALB/c 3T3; 0.1 µM; reference: solvent control): 110 ± 7%
Cn1c(Nc2nc3ccc(C(F)(F)F)cc3s2)nc2cc(C(=O)NCCOCCO)ccc21 — fold change (SH-SY5Y; RNA-seq, item: FGF5 mRNA; 5 µM, 5 h; reference: untreated cells): 2.13
C=CC(=O)N1CCC[C@@H](n2nc(-c3ccc(Oc4ccccc4)cc3)c3c(N)ncnc32)C1 — maximum inhibition (Ramos; calcium flux, FLIPR; 1 h preincubation): 92.9%
CCCCc1nc(Cl)c(CO)n1Cc1ccc(-c2ccccc2-c2nn[nH]n2)cc1 — log2 fold change (human PBMC; RNA-seq, item: GPR31 mRNA; 10 µg/mL, 24 h; reference: untreated control): 2.94
